Earlier results that unrelated publications cite.
Compare with care: the assays were run in different laboratories. ± marks the error that the study gave.
Ntsr1: Neurotensin receptor type 1 (Ntsr1, Rattus norvegicus, UniProt P20789)
Chain of UniProt P20789 (whole entry, looked up): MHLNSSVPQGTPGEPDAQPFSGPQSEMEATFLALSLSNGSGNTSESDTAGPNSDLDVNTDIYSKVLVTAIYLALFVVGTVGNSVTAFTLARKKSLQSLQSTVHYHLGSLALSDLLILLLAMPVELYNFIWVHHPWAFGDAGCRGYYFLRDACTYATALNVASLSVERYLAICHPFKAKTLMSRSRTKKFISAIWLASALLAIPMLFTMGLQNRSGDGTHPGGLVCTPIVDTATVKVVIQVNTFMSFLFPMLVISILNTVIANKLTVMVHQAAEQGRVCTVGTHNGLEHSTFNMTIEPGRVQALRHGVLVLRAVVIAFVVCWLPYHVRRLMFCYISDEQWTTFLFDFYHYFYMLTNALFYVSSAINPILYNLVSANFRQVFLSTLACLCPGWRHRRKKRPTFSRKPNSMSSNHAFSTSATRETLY
Chain of UniProt P05177 (whole entry, looked up): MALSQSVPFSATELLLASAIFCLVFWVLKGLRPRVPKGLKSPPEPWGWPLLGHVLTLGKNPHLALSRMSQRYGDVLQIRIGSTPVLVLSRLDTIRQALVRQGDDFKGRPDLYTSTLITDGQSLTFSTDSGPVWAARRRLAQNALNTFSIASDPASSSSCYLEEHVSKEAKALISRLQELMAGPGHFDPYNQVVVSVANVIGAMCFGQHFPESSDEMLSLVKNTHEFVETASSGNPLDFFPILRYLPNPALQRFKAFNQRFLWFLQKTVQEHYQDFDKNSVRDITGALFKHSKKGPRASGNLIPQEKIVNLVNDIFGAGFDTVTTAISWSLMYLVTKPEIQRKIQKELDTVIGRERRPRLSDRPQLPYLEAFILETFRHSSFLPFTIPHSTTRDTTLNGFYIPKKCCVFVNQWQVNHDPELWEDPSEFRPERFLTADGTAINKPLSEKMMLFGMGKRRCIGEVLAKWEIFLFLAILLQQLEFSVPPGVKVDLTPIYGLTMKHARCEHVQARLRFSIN
Chain of UniProt Q02936 (whole entry, looked up): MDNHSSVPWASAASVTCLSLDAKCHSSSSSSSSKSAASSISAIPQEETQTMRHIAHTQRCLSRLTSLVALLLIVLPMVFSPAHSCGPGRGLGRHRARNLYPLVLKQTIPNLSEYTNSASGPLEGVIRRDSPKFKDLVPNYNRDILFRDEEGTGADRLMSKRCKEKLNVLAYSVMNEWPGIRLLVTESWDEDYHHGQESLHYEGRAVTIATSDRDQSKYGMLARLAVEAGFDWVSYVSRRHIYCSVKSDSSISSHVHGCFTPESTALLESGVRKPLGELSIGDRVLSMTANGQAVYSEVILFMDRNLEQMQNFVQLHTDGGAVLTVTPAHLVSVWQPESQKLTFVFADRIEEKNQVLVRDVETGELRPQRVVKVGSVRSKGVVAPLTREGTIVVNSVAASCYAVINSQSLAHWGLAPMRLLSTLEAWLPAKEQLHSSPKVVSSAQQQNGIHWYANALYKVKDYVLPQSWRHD
Chain of UniProt P42338 (whole entry, looked up): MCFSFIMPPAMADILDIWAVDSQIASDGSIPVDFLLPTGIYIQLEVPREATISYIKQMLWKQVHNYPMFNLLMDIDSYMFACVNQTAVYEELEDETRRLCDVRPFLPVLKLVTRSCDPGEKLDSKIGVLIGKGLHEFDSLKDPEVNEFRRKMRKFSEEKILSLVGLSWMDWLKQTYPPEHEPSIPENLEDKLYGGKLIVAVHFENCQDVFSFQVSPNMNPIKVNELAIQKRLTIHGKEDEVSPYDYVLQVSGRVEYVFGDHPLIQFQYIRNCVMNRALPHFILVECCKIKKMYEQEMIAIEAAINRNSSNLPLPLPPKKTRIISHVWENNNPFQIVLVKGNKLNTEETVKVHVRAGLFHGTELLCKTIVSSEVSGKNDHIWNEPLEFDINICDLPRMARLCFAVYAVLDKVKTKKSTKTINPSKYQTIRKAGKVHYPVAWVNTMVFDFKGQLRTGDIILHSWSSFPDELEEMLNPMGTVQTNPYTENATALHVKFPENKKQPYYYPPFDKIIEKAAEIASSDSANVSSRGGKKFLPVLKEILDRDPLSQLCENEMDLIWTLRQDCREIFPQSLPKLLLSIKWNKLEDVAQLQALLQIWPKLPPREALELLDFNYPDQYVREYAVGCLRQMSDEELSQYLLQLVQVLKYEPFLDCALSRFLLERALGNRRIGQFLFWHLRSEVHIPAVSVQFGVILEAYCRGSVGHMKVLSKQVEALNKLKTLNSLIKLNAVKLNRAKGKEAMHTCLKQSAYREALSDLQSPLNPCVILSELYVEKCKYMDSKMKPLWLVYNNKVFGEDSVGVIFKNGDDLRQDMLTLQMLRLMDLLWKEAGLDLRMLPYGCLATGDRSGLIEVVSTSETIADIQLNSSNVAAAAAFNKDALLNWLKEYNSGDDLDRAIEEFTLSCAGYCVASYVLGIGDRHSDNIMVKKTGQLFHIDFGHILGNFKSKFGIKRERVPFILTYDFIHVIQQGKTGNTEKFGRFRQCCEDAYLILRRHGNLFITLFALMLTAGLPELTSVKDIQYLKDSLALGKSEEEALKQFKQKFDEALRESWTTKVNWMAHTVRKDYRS
Chain of UniProt Q99814 (whole entry, looked up): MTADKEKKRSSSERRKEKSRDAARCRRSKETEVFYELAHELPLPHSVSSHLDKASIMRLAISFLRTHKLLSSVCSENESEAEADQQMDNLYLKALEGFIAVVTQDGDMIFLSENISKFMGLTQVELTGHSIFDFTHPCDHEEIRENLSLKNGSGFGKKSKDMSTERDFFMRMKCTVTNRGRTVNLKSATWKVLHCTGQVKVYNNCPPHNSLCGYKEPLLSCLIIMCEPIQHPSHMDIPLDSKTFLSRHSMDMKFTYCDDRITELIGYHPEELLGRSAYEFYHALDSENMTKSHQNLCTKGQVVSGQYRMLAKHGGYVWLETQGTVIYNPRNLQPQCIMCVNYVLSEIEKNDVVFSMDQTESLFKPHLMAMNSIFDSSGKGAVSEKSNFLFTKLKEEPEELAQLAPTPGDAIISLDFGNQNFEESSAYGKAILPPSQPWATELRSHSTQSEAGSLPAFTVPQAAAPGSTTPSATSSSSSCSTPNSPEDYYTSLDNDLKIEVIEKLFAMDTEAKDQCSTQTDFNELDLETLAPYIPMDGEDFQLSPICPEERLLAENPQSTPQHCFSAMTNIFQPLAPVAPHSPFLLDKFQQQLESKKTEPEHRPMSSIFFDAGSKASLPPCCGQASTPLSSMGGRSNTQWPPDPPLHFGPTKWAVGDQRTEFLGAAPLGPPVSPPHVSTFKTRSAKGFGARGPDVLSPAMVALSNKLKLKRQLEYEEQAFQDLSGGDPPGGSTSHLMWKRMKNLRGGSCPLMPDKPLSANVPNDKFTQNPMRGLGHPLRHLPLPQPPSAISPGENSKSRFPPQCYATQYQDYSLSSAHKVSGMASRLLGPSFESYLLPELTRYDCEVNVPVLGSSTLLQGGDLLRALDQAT
Chain of UniProt P25021 (whole entry, looked up): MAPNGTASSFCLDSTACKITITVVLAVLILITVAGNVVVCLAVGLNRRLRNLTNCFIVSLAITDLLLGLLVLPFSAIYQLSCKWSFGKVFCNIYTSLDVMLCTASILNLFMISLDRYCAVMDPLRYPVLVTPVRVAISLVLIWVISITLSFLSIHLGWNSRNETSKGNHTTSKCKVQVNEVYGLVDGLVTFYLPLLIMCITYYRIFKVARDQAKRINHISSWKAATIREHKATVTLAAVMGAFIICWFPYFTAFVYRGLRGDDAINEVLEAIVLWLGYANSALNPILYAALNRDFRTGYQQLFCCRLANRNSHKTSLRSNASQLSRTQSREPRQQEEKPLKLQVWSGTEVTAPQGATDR
Chain of UniProt Q02318 (whole entry, looked up): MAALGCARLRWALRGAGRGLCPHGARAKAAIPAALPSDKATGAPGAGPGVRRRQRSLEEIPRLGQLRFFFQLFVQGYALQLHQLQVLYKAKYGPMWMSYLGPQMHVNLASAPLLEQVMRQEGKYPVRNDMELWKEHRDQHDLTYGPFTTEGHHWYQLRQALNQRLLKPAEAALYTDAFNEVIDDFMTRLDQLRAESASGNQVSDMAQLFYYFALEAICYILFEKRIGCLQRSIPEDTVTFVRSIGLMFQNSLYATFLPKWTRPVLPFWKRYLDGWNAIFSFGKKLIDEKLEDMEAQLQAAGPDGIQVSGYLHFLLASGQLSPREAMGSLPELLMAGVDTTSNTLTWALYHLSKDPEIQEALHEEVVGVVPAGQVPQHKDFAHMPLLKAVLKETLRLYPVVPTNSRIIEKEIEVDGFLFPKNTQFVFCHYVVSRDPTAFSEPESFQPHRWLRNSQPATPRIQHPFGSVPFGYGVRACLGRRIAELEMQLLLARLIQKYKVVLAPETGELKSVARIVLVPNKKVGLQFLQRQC
Chain of UniProt Q96LA8 (whole entry, looked up): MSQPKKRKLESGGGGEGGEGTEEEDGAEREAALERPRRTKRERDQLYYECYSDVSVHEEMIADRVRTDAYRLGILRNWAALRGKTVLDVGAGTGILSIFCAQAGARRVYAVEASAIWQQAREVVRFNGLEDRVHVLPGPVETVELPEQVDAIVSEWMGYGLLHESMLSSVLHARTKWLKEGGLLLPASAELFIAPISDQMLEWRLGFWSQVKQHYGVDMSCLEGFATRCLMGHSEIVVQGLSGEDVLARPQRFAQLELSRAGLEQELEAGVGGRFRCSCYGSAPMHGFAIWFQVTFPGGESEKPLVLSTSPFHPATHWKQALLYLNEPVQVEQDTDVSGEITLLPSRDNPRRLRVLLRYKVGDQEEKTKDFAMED
Chain of UniProt O14965 (whole entry, looked up): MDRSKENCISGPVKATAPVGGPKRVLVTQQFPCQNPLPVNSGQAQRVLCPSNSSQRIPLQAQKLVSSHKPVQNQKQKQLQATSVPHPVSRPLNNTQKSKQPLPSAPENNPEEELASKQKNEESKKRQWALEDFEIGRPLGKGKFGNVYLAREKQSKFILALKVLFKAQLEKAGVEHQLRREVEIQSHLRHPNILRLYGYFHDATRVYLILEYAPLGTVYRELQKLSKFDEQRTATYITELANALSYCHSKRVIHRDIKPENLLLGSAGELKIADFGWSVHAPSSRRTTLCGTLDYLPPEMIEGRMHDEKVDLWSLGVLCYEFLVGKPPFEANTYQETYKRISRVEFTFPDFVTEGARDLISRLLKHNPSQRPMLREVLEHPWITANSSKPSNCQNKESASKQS

CC1=CC(=O)CC(C)(C)C1=O
conversion (12-oxophytodienoate reductase OPR3 (isoform 3); ene-reductase biotransformation, substrate): 95 to 98%

Cc1cc(NC(=O)c2cccc(NC(=O)/C=C/CN(C)C)c2)ccc1Nc1nccc(-c2cccnc2)n1
remaining activity (Mast/stem cell growth factor receptor Kit (KIT, Homo sapiens, UniProt P10721); enzyme activity, inhibitor; 1 µM; baseline: vehicle): 4%

NCCc1ccc(O)c(O)c1
activity (uncharacterized protein (Ixodes scapularis, UniProt A0A0N9E2I2); inhibitor; concentration not given): inactive

CC1=CC(=O)N(c2ccccc2)C1=O
conversion (12-oxophytodienoate reductase OPR3 (isoform 3); ene-reductase biotransformation, substrate): 99%

CC(C)(O/N=C(\C(=O)N[C@@H]1C(=O)N2C(C(=O)[O-])=C(C[N+]3(CCNC(=O)c4ccc(O)c(O)c4Cl)CCCC3)CS[C@H]12)c1csc(N)n1)C(=O)O
Km (KPC-31; hydrolysis by enzyme, substrate): 12 µM

CC(C)CCC[C@@H](C)[C@H]1CC[C@H]2[C@@H]3CC=C4C[C@@H](O)CC[C@]4(C)[C@H]3CC[C@]12C
Km (hh, HhC autoprocessing domain (Drosophila melanogaster, UniProt Q02936); substrate; native substrate): 1 µM

CCC(=O)O[C@]1(C(=O)SCF)[C@H](C)C[C@H]2[C@@H]3C[C@H](F)C4=CC(=O)C=C[C@]4(C)[C@@]3(F)[C@@H](O)C[C@@]21C
receptor occupancy (Glucocorticoid receptor (Nr3c1, Rattus norvegicus, UniProt P06536); rat, spleen; intravenous, 90 nmol/kg, 1.133 (unit not given)): 53.5%

Cc1cc(NS(=O)(=O)c2ccc(N)cc2)no1
Km (NAT2; substrate): 5000 µM

N[C@@H](CC(=O)c1ccccc1)C(=O)O
relative kcat/Km (kynureninase (Pseudomonas fluorescens); substrate; baseline: L-kynurenine): ~10%

CO[C@H]1/C=C/O[C@@]2(C)Oc3c(C)c(O)c4c(O)c(c(/C=N/N5CCN(C)CC5)c(O)c4c3C2=O)NC(=O)/C(C)=C\C=C\[C@H](C)[C@H](O)[C@@H](C)[C@@H](O)[C@@H](C)[C@H](OC(C)=O)[C@@H]1C
Km (Solute carrier organic anion transporter family member 1B1 (SLCO1B1, Homo sapiens, UniProt Q9Y6L6); substrate): 1.5 to 13 µM

O=C(Nc1nc2ccccc2[nH]1)c1ccccc1
activity (matrix metalloproteinase 1; PubChem AID 618): 3.5 µM

C=CC(=O)N1CCC(C(=O)NCC(=O)N2CCN(c3nc(-c4cnc(N)nc4C(F)F)nc(N4CCOCC4)n3)CC2)CC1
remaining activity (Phosphatidylinositol 4,5-bisphosphate 3-kinase catalytic subunit beta isoform (PIK3CB, Homo sapiens, UniProt P42338); kinase activity; 1 µM): 0.05%

CNC(=NCCSCc1csc(N=C(N)N)n1)NC#N
Hill coefficient (Histamine H2 receptor (HRH2, Homo sapiens, UniProt P25021); historical reference value): 1.1

O=C(O)/C(=C/c1c(C(=O)O)[nH]c2cc(Cl)cc(Cl)c12)c1ccccc1
Hill coefficient (Glutamate receptor ionotropic, NMDA 1 (Grin1, Rattus norvegicus, UniProt P35439); binding): 0.6

CCCCCCCc1ccc(-c2c(C)[nH]c(C)c(Cl)c2=O)cn1
IC50 (Plasmodium falciparum; whole cell extended time; 3D7; 72 h): 360 nM

CC(C)CCC[C@@H](C)[C@H]1CC[C@H]2[C@@H]3CC=C4C[C@@H](O)CC[C@]4(C)[C@H]3CC[C@]12C
kcat (Sterol 26-hydroxylase, mitochondrial (CYP27A1, Homo sapiens, UniProt Q02318); substrate): 0.163 s⁻¹

CC1(C)S[C@@H]2[C@H](NC(=O)[C@H](N)c3ccccc3)C(=O)N2[C@H]1C(=O)O
MIC (Klebsiella pneumoniae; clinical isolate RKI-No_577/15): > 16 µg/mL

Nc1cc(C(F)(F)F)c(-c2nc(N3CCOCC3)nc(N3CCOCC3)n2)cn1
remaining activity (Epidermal growth factor receptor (EGFR, Homo sapiens, UniProt P00533, L858R/T790M); enzyme activity; 10 µM; baseline: untreated): 78%

O=[N+]([O-])c1cc(C(F)(F)F)ccc1NN1CCOCC1
binding enthalpy (Endothelial PAS domain-containing protein 1, PAS-B domain (EPAS1, Homo sapiens, UniProt Q99814); isothermal titration calorimetry; concentration not given, <0.1% DMSO): -8.1 kcal/mol

Cn1c(=O)c2[nH]cnc2n(C)c1=O
Km (Cytochrome P450 1A2 (CYP1A2, Homo sapiens, UniProt P05177); substrate): 280 to 1230 µM

Nc1ccn([C@@H]2O[C@H](CO)[C@@H](O)[C@H]2F)c(=O)n1
Km (cytidine deaminase (human); substrate; concentration not given): 16 µM

CNC(C)C1CCC(N)C(OC2C(N)CC(N)C(OC3OCC(C)(O)C(NC)C3O)C2O)O1 (stereo not shown)
MIC (Klebsiella pneumoniae; clinical isolate RKI-No_229/15): > 8 µg/mL

CCN(c1cc(-c2ccc(CN3CCOCC3)cc2)cc(C(=O)NCc2c(C)cc(C)[nH]c2=O)c1C)C1CCOCC1
inhibition (Protein arginine N-methyltransferase 6 (PRMT6, Homo sapiens, UniProt Q96LA8); enzyme activity, inhibitor; 1 µM): 3 ± 3%

Nc1cc(C(F)(F)F)c(-c2nc(N3CCOCC3)nc(N3CCOCC3)n2)cn1
remaining binding (Phosphatidylinositol 4-phosphate 3-kinase C2 domain-containing subunit beta (PIK3C2B, Homo sapiens, UniProt O00750); KinomeScan competition binding; 10 µM): 41%

Cc1cn([C@@H]2O[C@H](CO)[C@@H](O)[C@H]2O)c(=O)nc1N
Km (cytidine deaminase (human); substrate; concentration not given): 4 µM

COc1cccc(OC)c1-c1cc(C(=O)N[C@H](C(=O)O)C2CCCCC2)nn1-c1ccnc2cc(Cl)ccc12
Ke (Ntsr1; antagonist, FLIPR calcium): 23 ± 6 nM

CC(C)=CCCC(C)=CC=O (mixture of isomers)
conversion (12-oxophytodienoate reductase OPR1 (isoform 1); ene-reductase biotransformation, substrate): 15 to 99%

CCCCCCCCc1c(C)[nH]c(C)c(Cl)c1=O
IC50 (Plasmodium falciparum; whole cell extended time; 3D7; 72 h): 230 nM

CCn1cc(-c2ccnc3[nH]c(-c4cccc(CN(C)C)c4)cc23)c(-c2ccc(NC(=O)N(C)C)cc2)n1
selectivity ratio (Aurora kinase A (AURKA, Homo sapiens, UniProt O14965); baseline: AURKB over AURKA): > 250 fold

Cc1ccc2nc(NC(=O)CSc3nc4c(c(=O)n3-c3ccc(F)cc3)SCC4)sc2c1
inhibition (Casein kinase I isoform gamma-3 (CSNK1G3, Homo sapiens, UniProt Q9Y6M4); 10 µM): ~40%

COc1cccc(OC)c1-c1cc(C(=O)NC2(C(=O)O)CCCCC2)nn1-c1ccnc2cc(Cl)ccc12
Ke (Ntsr1; antagonist, FLIPR calcium): 157 ± 45 nM

Some of these lines once more:
CC(C)CCC[C@@H](C)[C@H]1CC[C@H]2[C@@H]3CC=C4C[C@@H](O)CC[C@]4(C)[C@H]3CC[C@]12C
kcat (Sterol 26-hydroxylase, mitochondrial (CYP27A1, Homo sapiens, UniProt Q02318); substrate): 0.163 s⁻¹

CC1(C)S[C@@H]2[C@H](NC(=O)[C@H](N)c3ccccc3)C(=O)N2[C@H]1C(=O)O
MIC (Klebsiella pneumoniae; clinical isolate RKI-No_577/15): > 16 µg/mL

Nc1cc(C(F)(F)F)c(-c2nc(N3CCOCC3)nc(N3CCOCC3)n2)cn1
remaining activity (Epidermal growth factor receptor (EGFR, Homo sapiens, UniProt P00533, L858R/T790M); enzyme activity; 10 µM; baseline: untreated): 78%

O=[N+]([O-])c1cc(C(F)(F)F)ccc1NN1CCOCC1
binding enthalpy (Endothelial PAS domain-containing protein 1, PAS-B domain (EPAS1, Homo sapiens, UniProt Q99814); isothermal titration calorimetry; concentration not given, <0.1% DMSO): -8.1 kcal/mol
